# Assay results of several laboratories.
# Each numbered part is a random draw from the data of one study; scales do not carry over between parts.

# Sample 1
# Target: RNA binding protein fox-1 homolog 2, RRM domain, GST-SBP tag (RBFOX2, Homo sapiens, UniProt O43251-10, residues 100-194)
# Method: RNA Bind-n-Seq
# Form: RNA
# Medium: in vitro
# Tested at: 365 nM
# Setting: natural RNA segment, single round, ends assumed
# Relative to: no-protein control
# Direction: higher = stronger binding
# Constant ends, left off below: GGGAGUUCUACAGUCCGACGAUC … UGGAAUUCUCGGGUGCCAA
# Target sequence (chain): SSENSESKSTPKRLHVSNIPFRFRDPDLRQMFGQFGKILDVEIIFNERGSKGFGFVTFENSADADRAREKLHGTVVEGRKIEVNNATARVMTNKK
Sequence,RBNS enrichment (R)
GCCUGUCACUCCCUGUAUUUCUCCCUCCAUCCAGAGCUCGCUCCACACUCCUGCUCACCCAGCAAGUGCAGCCUCUGGCCCUCCUCUGCUUUUUCACUCCAUCCAGCUUA,0.86
GGGACCCAGCUCCAUGCACGUCAACCCAGUCCCGCCCAGACUAGUGGACAGACCUGGUGUCACCAGUUUUUCCUAGCAUCAGUCCGAACCAUGCGCCCGCCCUGCCCCAA,6.66
UUUAGGAAAUUGCCAGACUGUUUUCCAAAGAAGCUGCACCAUUUUACAUUUGCACCAGCAAUGUAGGAGGGUUCUGAUAUCUCCACGUCCUCACCAACACUUGUGAUUAU,0.187
ACAGAUCUUUGCCAGUGGUUGGCCCUGAUUGAAAACCUGUUUGAAACAGACUGUGUAGGAAAAAUCAGGAUUAAAGAGUGCUGCCUUUAUGGCUCCUUCUUCAGAAUAGG,0.359
CAGACAGCAAAUGAUUCCGGAUCUCUAAAAGGCUCUCUCAGAUGAAAAGGGAGUAAAGGAAAAAAGAGGUCAACCACUGUUUCUGAUAAUGUACUUGAGUUUCAUUGUUC,0.514
CCUUCCUUCAUCCUUGGGGGUCUCAGGCUGCCCCCAUCAUGGGGGUCUGGGCCCUGCCCACCCUCCUGCCCUCCCCCAGCCACCUGGCUGCAUUUUUGAAGCUGCCUGGC,0.242
CUUCUUUAUGGCAACAGGAGGAGAAAGCAAGGCCCAGGAGAGGAGGCCUCCAAGGCAGAAGCUAUUGGGAGCCUCCCUGAUGCUCCUCAGCCUCUUAGAGAGGAGCCCUU,0.282
AAGUUUGAAGACCAAGAAAUCCUGUAUUUCCUACUCUAGGUGAGACAAUGUGAGAGGACAAAGUAUGAAGAGUCUGGUUUUUACUAGAACCUGACAGAGAAGGGAAGGUU,0.727
CUCUAGUCAUCCAGAAACCCACUCCCUUCUGAAGCCCCUCCUUGGGCCGGGUUGUAUCAGGAGGAUUCAACCCCGCUAACAUGUGGGGUGCCCUCUGUAGGCCUUCACAC,0.34
UAUGGUGGGUAUGAGGGGCCAGCUGAUACCAACCAACUGGCCUGUAUCUAUCUAUCUGGAUUUGACUUGAAUUUUUAAAAUGUGUAUCGUUUAAAAAAAAAAAUGUUUGC,0.983
UCUGGCAAAGAGAAUACAAAUGAAACCCCUUCUUUCUCUUUCCGUCCAACAACUCUGUAGAGCUCUCUGCACCCUUACCCCUUUCCACCUUUUGUAUUUAAUUUUAAAGU,0.429
CUUUACUGAUUUAAUACAGAAUAACAAUCUUAUUUUCCACUUGGUAACUAUGGCUUUAUGUUGGGUUACUGUUUAAGGAAAGUUGAUCUGGGCCUUUUUAAAAACAUAAU,0.305

# Sample 2
# Target: Phosphate system positive regulatory protein PHO4, full length, GST-tagged (PHO4, Saccharomyces cerevisiae, UniProt P07270, residues 1-312)
# Method: competition protein-binding microarray
# Form: double-stranded DNA, one strand shown
# Medium: in vitro
# Tested at: 2 µM
# Setting: whole 60-bp probe, lowest competitor level
# With: Cbf1 competitor, 0.05 µM
# Direction: higher = stronger binding
# Constant ends, left off below: … GTCTTGATTCGCTTGACGCTGCTG
# Target sequence (chain): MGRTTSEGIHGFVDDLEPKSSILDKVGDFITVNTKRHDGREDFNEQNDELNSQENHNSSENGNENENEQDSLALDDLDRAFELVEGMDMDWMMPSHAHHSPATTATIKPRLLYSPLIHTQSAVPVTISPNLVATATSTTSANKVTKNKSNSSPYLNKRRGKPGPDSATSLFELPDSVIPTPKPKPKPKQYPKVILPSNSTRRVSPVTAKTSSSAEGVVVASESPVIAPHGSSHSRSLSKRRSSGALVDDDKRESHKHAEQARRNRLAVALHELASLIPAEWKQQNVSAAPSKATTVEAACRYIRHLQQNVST
Sequence,fluorescence intensity
CATGGAAGTTACCATCACCTGCATTACCAACAATGG,5440 a.u.
GTTTGATAATGTCAACACGTCATCATAGATGGTTGT,6360 a.u.
CGGCTTACTTTGTAACGCGTGGTCGCCTATACACCG,8450 a.u.
TGCCTCAGTTATGAGCACGTGCTCTGACCTGGCTGC,18500 a.u.
CGTAGGGCAATTTTTAGCGTGATGGATAAGGGCGCA,3780 a.u.
GTTACCAATTTGAGACTTGTAATATGGTTGGTTACC,3980 a.u.
CGGGGTTAAGTTTGTTATGTGGGTGGCTTGCAGCAG,5040 a.u.
TAGCTGACATCCAAGCATGCGTGGAAGATTTCTTAA,7620 a.u.
TGAAAGAAGAACCATCACGTGGAACATGCTTTTTAG,14100 a.u.
TAATAAAAATGTTACCACGTTATCAGGGTTTTCATG,10000 a.u.
TCGGTTGTCCAAACCCATGTGGTGCTGGTGGCGGAA,9530 a.u.
CAAGTCAAGTTTCAACACGTAGTCTTGAACAGTGGG,6450 a.u.
GGCAAGGGGGGGGATGACACGGGCGGCTCTGGTTGG,7910 a.u.
CATACCCAACCTTGTCACAACACTTAAGATATTTGT,4010 a.u.
CATACCCAACCTTGTCACCTTACTTAAGATATTTGT,3850 a.u.
TGCGCAACAACTTGTCACTAAACTTTATGTCTAGAA,3060 a.u.
ATTGTTCCACCCGACCACGTGCTTTTTCATAAGGGT,20500 a.u.
GCGTTATCTCTATTAGACGTGCTTTTCAAGAATTGT,5620 a.u.
CGTCCTAGTGATTGTGTGGTGGGTGCCATGAGGAAG,7820 a.u.
TAAGGTATTACGAGACACATGGAATACTAAGAATAT,7730 a.u.
GCACAAGGAATTGCTGGCGTGCTAATTCTCGACCTT,5850 a.u.
GTCTTGTCTCATTGTATGGTGGGTGTCCCCACTTCA,5210 a.u.
CTTTCCCGATCTTGTATCGTGGGTGTAGCACATTTG,7440 a.u.
GTCTTGTCTCATTGTCACTCTACTTTCCCCACTTCA,4290 a.u.
CGTCCTAGTGATTGGATCGTGGGTGCCATGAGGAAG,11200 a.u.

# Sample 3
# Target: Cyclic AMP-dependent transcription factor ATF-1 (ATF1, Homo sapiens, UniProt P18846, residues 1-271, full length assumed)
# Method: protein-binding microarray
# Form: double-stranded DNA, one strand shown
# Medium: in vitro
# Tested at: not given
# Setting: k-mer, scored over probes, only values ≥0.25
# Direction: higher = stronger binding
# Residues (chain): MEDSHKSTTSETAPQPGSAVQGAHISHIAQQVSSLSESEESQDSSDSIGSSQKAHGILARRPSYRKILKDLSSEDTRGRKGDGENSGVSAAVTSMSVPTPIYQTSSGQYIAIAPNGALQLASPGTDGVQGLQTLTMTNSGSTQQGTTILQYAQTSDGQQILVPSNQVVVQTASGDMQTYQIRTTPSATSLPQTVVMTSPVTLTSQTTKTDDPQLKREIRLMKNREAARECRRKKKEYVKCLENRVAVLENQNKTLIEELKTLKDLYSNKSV
Sequence,E-score
GGCGTCA,0.396
GACGCGC,0.293
ATATACG,0.261
CAAACGA,0.252
ACGTAGT,0.398
ACGTGAT,0.361
CGATTAC,0.321
CTACGCA,0.283
ACAACGT,0.275
ACGAAAT,0.264
AAAACGT,0.253
CGACGTC,0.342
AAGTGAC,0.29
ACATGAC,0.365
GACGCAC,0.291
CTCGTCA,0.4
CGTAACA,0.344
CGATGAC,0.41
GTCACTA,0.343
ACGTAAT,0.46
ACGTTTG,0.283
CTGACGC,0.388
CGTAATC,0.396
ACGTACG,0.398
ACACGTG,0.316

# Sample 4
# Target: RING finger protein unkempt homolog, zinc fingers 1-6, GST-SBP tag (UNK, Homo sapiens, UniProt Q9C0B0, residues 30-357)
# Method: RNA Bind-n-Seq
# Form: RNA
# Medium: in vitro
# Tested at: not given
# Setting: RNA with constant flanks, human and mouse sites, ends assumed
# Relative to: input RNA pool
# Direction: higher = stronger binding
# Constant ends, left off below: GGGAGUUCUACAGUCCGACGAUC … CAACAGAGGAUUGAGCAUCA
# Residues (chain): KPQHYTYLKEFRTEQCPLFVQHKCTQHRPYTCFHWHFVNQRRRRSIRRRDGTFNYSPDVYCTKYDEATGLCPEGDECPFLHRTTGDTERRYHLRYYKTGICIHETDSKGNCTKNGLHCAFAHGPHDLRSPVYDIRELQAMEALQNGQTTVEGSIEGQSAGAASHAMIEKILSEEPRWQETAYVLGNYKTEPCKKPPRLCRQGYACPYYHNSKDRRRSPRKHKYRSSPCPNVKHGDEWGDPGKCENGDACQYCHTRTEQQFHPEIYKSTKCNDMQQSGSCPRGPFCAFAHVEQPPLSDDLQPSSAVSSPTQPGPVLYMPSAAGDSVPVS
Sequence,bound/input enrichment
UGGGAUGAAAAUCUCAAAGAUGAUUCUCUUCCUGAAAAUCCAAUAGACUUUUCUUACAGAGUAGCUGCUUGUCUUCCUAUUGAUGAUGUAUUGAGAAUUCAGCUCCUUAAAAUCGGCAGU,0.253 ratio
AGAGGGAGCCAAACAAAAUUGCUAUGCUAUAUGAUGCUGUUUUCAUUGUUUGUCUUUUUUGUCAUUUAUUGGAUUAUUAAACUGAGGUGAUGGAAGUUAGUGUGGGCUUUGAAUUUGUUG,0.812 ratio
ACAGAAAACAUCAAUAGUGGUUAUGAGACCAGAAGGAAAAAAGGAAAAAAAGAGAAAGAUACUUCAAAAGAAAAAGACAUACAAAAUCAGAAUAUGACUUUGGACUGUGAAGGAACAAAC,0.501 ratio
CCUGCUGUGAACAUUCAGCCAGAUGUUUCUGGAGGUUGGGACUGGCAUGCUAAACCAGGAGGCUUUGGAAUGGGAAGCAAGUCAGCUGCCACCAGCCCAACCGGAUCCUCGCAUGGUACU,0.0835 ratio
UCAGAGGCUUUCCUCUCGAAUCUAGUCGUUAACAAGACCAUCUUUGCUAAAGUAGACAGGUUGGCUGGAGUCAUCAACUUCCAGAGACCCAAGGAUCCAAAUAAUUUAUUAAAUGACUGG,0.411 ratio
GCAACGCCAAAGGUGAAGAACCAGCUCAAGGAGACCACUGAGGCAGCCUGCAGAUACGGAGCCUUUGGGCUGCCCAUCACCGUGGCCCAUGUGGAUGGCCAAACCCACAUGUUAUUUGGC,0.101 ratio
AGUCUCAGGUUGUGUGCCCCUAAAUCAAGAUUUGCUUCCACAGAAGCCAUUACUUGCAAUUUUUUUUUUUUUUCUGAGAAAGUCUCGCUGUGUCACCCAGGCUGGAGUGCAGUGGCGCAA,0.685 ratio
CUGAUUCACAGGGACAUUAAAGCAGGGAACAUCCUCCUCACAGAGCCAGGUCAGGUGAAGCUGGCUGACUUCGGAUCUGCCUCCAUGGCUUCUCCCGCCAACUCCUUUGUGGGGACUCCU,0.0583 ratio
AUGCAUCUGAAGAAGCCAGGAGGCUUUGAUGUAUCCGUGUUCUACAGGGACAUCAUCACCACCGCUGAGGACGAGGACCUUGGGGUUCACUUCGAGGAGUCAAGCAAGCUGGAAGACCUG,0.123 ratio
UGUUACUCUGAUGGCACCGCAGUUCAUGAAAGCCACACAAAAAAUGCUUCAUUUUACGCUAGCUCUUCAACUCUCUACUACCAAAUAGAUAGUCACAUCCCAGGAACUCCUAGCCAGCUC,0.198 ratio
UCAGGGCCAAAACUGGAACCAAGGAUUUAAUAACUAUUAUGAUCAAGGAUAUGGAAAUUAUAAUAGUGCCUAUGGUGGUGAUCAGAACUAUAGUGGCUAUGGCGGCUAUGAUUAUACUGG,0.201 ratio

# For quick reference, copied from above (sample 2):
Sequence,fluorescence intensity
TGAAAGAAGAACCATCACGTGGAACATGCTTTTTAG,14100 a.u.
CAAGTCAAGTTTCAACACGTAGTCTTGAACAGTGGG,6450 a.u.
TGCGCAACAACTTGTCACTAAACTTTATGTCTAGAA,3060 a.u.
ATTGTTCCACCCGACCACGTGCTTTTTCATAAGGGT,20500 a.u.
